Experimental data gathered from unrelated publications.
Lines come from different studies, so protocols differ. ± gives the spread as reported.
lecA: PA-I galactophilic lectin (lecA, Pseudomonas aeruginosa, UniProt Q05097)
Chain of UniProt Q07741 (whole entry, looked up): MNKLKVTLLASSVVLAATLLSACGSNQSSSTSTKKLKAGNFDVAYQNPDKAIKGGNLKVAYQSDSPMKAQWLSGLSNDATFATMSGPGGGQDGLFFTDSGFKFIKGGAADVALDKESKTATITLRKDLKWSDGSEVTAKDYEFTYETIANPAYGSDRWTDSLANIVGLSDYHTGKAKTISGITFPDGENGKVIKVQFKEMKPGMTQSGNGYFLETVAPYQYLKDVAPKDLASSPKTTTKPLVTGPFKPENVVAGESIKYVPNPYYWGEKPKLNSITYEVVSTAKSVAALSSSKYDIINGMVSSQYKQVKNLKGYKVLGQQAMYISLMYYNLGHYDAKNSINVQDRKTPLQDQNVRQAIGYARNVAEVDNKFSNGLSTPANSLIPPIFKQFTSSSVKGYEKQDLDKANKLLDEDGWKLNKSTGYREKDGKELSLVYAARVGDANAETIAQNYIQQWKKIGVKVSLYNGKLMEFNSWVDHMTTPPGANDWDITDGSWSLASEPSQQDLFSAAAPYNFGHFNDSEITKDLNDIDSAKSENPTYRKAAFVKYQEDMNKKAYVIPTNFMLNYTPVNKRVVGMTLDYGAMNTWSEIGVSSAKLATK
Chain of UniProt Q9Y294 (whole entry, looked up): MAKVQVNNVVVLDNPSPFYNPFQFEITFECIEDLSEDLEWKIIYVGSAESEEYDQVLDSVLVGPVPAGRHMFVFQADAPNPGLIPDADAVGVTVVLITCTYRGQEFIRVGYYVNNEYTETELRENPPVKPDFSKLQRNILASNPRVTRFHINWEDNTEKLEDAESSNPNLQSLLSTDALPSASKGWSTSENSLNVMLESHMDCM
Chain of UniProt O35082 (whole entry, looked up): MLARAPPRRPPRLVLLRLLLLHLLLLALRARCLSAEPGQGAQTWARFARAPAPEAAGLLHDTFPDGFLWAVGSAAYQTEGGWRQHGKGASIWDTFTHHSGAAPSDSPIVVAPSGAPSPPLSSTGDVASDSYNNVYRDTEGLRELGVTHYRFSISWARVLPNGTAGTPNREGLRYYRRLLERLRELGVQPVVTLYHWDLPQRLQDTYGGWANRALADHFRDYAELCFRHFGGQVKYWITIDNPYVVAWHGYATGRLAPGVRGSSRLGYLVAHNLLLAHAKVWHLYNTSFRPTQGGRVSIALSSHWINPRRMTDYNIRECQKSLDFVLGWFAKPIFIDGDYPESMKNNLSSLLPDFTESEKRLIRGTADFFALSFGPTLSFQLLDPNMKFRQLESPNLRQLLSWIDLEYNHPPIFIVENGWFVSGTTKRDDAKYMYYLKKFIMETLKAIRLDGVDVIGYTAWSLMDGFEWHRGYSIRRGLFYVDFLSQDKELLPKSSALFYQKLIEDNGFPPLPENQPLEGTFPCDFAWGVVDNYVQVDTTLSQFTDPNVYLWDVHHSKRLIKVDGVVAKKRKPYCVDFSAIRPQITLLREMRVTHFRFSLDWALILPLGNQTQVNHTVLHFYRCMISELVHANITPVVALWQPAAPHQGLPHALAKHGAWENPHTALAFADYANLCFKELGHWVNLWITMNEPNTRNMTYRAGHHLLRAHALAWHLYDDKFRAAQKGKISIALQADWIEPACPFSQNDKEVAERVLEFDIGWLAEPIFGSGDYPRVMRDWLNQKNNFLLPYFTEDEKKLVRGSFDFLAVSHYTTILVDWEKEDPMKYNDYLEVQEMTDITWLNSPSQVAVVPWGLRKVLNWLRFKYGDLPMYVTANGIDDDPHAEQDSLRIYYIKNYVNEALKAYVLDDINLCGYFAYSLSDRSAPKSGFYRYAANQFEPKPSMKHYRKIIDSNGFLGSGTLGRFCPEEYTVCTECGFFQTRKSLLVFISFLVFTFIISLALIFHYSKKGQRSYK
Chain of UniProt Q9Y6Y9 (whole entry, looked up): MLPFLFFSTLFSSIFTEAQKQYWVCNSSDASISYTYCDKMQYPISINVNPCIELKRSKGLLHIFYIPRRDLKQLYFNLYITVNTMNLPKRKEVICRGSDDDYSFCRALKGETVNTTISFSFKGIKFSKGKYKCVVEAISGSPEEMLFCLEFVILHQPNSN
Chain of UniProt P11021 (whole entry, looked up): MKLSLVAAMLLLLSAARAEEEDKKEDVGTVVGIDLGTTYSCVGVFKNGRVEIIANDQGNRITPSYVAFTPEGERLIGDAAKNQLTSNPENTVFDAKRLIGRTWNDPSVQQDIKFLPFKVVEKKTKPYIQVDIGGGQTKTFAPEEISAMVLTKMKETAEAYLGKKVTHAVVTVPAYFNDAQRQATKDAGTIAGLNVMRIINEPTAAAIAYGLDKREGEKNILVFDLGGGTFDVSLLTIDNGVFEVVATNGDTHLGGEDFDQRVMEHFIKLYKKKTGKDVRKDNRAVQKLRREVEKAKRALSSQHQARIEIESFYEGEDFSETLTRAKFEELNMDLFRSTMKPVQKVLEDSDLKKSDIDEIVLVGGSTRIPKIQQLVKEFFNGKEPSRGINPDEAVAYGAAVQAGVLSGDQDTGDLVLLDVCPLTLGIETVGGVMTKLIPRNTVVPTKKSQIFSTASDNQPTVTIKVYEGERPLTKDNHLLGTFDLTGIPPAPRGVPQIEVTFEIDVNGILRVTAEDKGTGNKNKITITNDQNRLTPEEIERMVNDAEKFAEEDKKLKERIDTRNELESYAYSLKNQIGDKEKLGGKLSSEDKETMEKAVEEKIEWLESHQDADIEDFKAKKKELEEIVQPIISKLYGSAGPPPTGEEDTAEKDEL
Chain of UniProt P22455 (whole entry, looked up): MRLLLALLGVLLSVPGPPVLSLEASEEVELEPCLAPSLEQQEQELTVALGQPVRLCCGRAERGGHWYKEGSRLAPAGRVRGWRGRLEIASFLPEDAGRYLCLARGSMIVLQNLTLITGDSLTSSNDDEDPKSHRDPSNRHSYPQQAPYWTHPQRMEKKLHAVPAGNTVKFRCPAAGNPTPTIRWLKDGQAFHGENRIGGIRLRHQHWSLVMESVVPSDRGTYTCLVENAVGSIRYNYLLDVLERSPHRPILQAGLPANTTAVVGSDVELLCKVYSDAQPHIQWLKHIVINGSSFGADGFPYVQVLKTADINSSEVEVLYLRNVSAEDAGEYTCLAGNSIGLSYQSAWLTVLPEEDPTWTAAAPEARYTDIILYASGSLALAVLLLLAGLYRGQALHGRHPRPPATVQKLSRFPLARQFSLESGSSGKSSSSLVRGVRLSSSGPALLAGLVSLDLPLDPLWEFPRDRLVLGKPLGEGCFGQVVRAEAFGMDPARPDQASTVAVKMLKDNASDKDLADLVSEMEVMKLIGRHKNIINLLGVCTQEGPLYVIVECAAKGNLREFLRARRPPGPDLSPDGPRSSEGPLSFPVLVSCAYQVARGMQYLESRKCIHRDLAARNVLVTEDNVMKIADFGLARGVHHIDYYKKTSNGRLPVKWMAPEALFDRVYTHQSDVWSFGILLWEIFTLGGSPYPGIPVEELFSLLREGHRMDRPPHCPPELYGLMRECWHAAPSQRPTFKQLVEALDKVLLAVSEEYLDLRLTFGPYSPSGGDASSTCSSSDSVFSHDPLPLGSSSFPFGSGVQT
Chain of UniProt Q39204 (whole entry, looked up): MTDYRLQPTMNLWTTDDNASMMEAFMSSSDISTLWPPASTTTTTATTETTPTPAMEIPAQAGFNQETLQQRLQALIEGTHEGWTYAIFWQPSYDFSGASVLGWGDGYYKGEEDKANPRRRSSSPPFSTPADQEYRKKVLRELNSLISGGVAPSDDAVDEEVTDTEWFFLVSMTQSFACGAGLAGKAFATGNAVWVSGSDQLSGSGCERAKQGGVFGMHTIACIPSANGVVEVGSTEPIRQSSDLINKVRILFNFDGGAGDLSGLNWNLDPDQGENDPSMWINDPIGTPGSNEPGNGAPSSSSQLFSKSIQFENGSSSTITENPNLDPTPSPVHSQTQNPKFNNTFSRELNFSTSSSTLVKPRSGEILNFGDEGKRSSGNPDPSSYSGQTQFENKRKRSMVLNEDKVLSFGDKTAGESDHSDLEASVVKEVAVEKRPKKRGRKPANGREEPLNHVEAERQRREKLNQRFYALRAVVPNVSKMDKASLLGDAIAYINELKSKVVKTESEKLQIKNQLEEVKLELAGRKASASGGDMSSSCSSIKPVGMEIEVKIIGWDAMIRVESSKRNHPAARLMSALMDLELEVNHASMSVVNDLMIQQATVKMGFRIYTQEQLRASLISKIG
Chain of UniProt P41595 (whole entry, looked up): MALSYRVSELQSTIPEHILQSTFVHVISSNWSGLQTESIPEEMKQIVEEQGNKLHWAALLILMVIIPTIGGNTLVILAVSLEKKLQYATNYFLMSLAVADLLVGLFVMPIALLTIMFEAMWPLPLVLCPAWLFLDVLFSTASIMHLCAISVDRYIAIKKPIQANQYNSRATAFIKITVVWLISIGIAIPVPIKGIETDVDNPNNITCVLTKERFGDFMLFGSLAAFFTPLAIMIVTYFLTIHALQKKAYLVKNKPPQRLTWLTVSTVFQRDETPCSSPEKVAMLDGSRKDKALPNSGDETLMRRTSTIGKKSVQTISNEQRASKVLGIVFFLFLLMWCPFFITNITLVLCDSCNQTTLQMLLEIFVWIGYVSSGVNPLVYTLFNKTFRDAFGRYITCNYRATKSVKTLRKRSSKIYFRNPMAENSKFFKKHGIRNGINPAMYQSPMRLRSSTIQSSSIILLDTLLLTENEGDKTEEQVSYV
Chain of UniProt Q9ULV8 (whole entry, looked up): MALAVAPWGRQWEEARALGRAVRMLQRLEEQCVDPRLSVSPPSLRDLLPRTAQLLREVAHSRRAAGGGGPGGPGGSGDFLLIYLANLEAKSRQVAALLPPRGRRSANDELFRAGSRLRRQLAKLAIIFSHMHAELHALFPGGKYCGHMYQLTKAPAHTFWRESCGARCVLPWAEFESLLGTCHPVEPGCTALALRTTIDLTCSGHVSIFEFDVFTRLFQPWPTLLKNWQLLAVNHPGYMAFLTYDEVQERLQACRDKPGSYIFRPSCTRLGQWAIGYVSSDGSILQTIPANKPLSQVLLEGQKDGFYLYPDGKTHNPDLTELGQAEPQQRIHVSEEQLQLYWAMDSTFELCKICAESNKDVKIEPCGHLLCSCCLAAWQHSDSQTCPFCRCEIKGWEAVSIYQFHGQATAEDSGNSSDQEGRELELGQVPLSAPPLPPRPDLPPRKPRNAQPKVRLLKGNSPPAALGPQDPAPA

With `Nc1ncnc2c1ncn2[C@@H]1O[C@H](COP(=O)(O)OP(=O)(O)OP(=O)(O)O)[C@@H](O)[C@H]1O` the Kd was 2.2 µM (dnaA (Escherichia coli, UniProt P03004, D118Q); binding, radiometric).
`CC[C@H](C)[C@H](NC(=O)[C@H](Cc1c[nH]cn1)NC(=O)[C@H](CCCCNC(=O)[C@@H](NC(=O)[C@H](CCCCN)NC(=O)[C@H](Cc1ccccc1)NC(=O)[C@H](CCCCNC(=O)[C@H](CC(C)C)NC(=O)[C@@H]1CCCN1C(=O)[C@H](CCCCN)NC(=O)c1ccc(O[C@@H]2O[C@H](CO)[C@H](O)[C@H](O)[C@H]2O)cc1)NC(=O)[C@H](CC(C)C)NC(=O)[C@@H]1CCCN1C(=O)[C@H](CCCCN)NC(=O)c1ccc(O[C@@H]2O[C@H](CO)[C@H](O)[C@H](O)[C@H]2O)cc1)[C@@H](C)CC)NC(=O)[C@@H](NC(=O)[C@H](CCCCN)NC(=O)[C@H](Cc1ccccc1)NC(=O)[C@H](CCCCNC(=O)[C@H](CC(C)C)NC(=O)[C@@H]1CCCN1C(=O)[C@H](CCCCN)NC(=O)c1ccc(O[C@@H]2O[C@H](CO)[C@H](O)[C@H](O)[C@H]2O)cc1)NC(=O)[C@H](CC(C)C)NC(=O)[C@@H]1CCCN1C(=O)[C@H](CCCCN)NC(=O)c1ccc(O[C@@H]2O[C@H](CO)[C@H](O)[C@H](O)[C@H]2O)cc1)[C@@H](C)CC)C(N)=O` gave a Kd of 0.1 ± 0.01 µM (lecA; isothermal titration calorimetry; pH 7.5, 25 °C, with: 25 mM CaCl2).
The Kd of `CC(C)C[C@H](NC(=O)[C@@H]1CCCN1C(=O)[C@H](CCCCN)NC(=O)CCS[C@@H]1O[C@H](CO)[C@H](O)[C@H](O)[C@H]1O)C(N)=O` is reported as 37 µM (lecA; binding, ITC).
The Kd of `CC[C@H](C)[C@H](NC(=O)[C@@H](NC(=O)[C@H](Cc1c[nH]c2ccccc12)NC(=O)[C@H](C)NC(=O)[C@H](CO)NC(=S)Nc1ccc2c(c1)C(=O)OC21c2ccc(O)cc2Oc2cc(O)ccc21)C(C)C)C(=O)N[C@H](C(=O)N[C@H](C(=O)N1CCC[C@H]1C(=O)N[C@@H](Cc1ccccc1)C(=O)N[C@@H](CC(C)C)C(=O)N[C@H](C(=O)N[C@@H](CC(N)=O)C(=O)N[C@@H](CC(C)C)C(=O)O)[C@@H](C)O)[C@@H](C)CC)C(C)C` is reported as 3.3 ± 0.1 µM (Rgg transcriptional regulator (Streptococcus pneumoniae, UniProt A0A0E7KI02); binder, fluorescence polarization; 20 min, pH 7.4, 20 °C, fluorescein-labelled peptide).
`CC(C)C[C@H](NC(=O)[C@@H]1CCCN1C(=O)[C@H](CC(=O)O)NC(=O)[C@H](CO)NC(=O)[C@H](C)NC(=O)CC1c2ccccc2-c2ccccc21)C(=O)NCC(=O)N[C@H](C(=O)N[C@H](C(=O)N[C@@H](CCCNC(=N)N)C(=O)N1CCC[C@H]1C(=O)N[C@@H](CCCNC(=N)N)C(N)=O)C(C)C)C(C)C` has a Kd of 0.357 ± 0.066 µM (Klotho (Kl, Mus musculus, UniProt O35082); BLI competition binding; 30 min, 30 °C, with: 100 nM mouse Klotho, immobilized Pep-10-Biotin).
The Kd of `CSCC[C@H](NC(C)=O)C(=O)N[C@H]1CSCc2cc3cc(c2)CSC[C@@H](C(=O)N[C@H](C(=O)N[C@@H](C)C(=O)N[C@@H](Cc2ccc(O)cc2)C(=O)N[C@@H](CCCCN)C(=O)N[C@@H](Cc2ccc(O)cc2)C(=O)NCC(=O)N[C@@H](CO)C(=O)NCC(=O)N[C@@H](CO)C(=O)NCC(=O)N[C@@H](CO)C(=O)N[C@@H](CC(=O)O)C(=O)N[C@@H](Cc2ccc(O)cc2)C(=O)N[C@@H](CCCCN)C(=O)N[C@@H](CC(=O)O)C(=O)N[C@@H](CC(=O)O)C(=O)N[C@@H](CC(=O)O)C(=O)N[C@@H](CC(=O)O)C(=O)N[C@@H](CCCCN)C(N)=O)[C@@H](C)O)NC(=O)[C@H](Cc2ccccc2)NC(=O)[C@H](CCCCN)NC(=O)[C@H](CSC3)NC(=O)[C@H](Cc2ccccc2)NC(=O)[C@H](CC(N)=O)NC(=O)[C@H](CC(C)C)NC(=O)[C@H]([C@@H](C)O)NC1=O` is reported as 1.31 µM (FGFR4 (Homo sapiens, UniProt P22455); binding, BLI).
`CCOc1ccc2c(c1)c(C(=O)O)c(C)n2C` gave a Kd of 400 µM (E3 ubiquitin-protein ligase CBL-C (Homo sapiens, UniProt Q9ULV8); binding, NMR).
For `N[C@@H](Cc1ccccc1)C(=O)N[C@@H](CCC(=O)O)C(=O)N[C@@H](CCC(=O)O)C(=O)N[C@@H](CC(=O)O)C(=O)O`, the Kd was > 0.1 µM (LY96 (Homo sapiens, UniProt Q9Y6Y9); binding, SPR).
`CC[C@H](C)[C@H](NC(=O)[C@H](CCCNC(=N)N)NC(=O)[C@H](CCCCN)NC(=O)[C@@H](NC(=O)[C@H](C)NC(=O)[C@H](CCCNC(=N)N)NC(=O)[C@H](CCC(N)=O)NC(=O)[C@H](CO)NC(=O)[C@H](CCCCN)NC(=O)[C@H](CC(N)=O)NC(=O)[C@@H](N)CCCNC(=N)N)[C@@H](C)O)C(=O)N[C@@H](CO)C(=O)N[C@@H](Cc1c[nH]cn1)C(=O)N[C@@H](CCSC)C(=O)N1CCC[C@H]1C(=O)N[C@@H](CO)C(=O)N[C@@H](CCCNC(=N)N)C(=O)N1CCC[C@H]1C(=O)N[C@@H](CCC(=O)O)C(=O)N[C@@H](CC(C)C)C(=O)N[C@@H](CO)C(=O)N[C@@H](C)C(=O)N[C@H](C(=O)N[C@@H](C)C(=O)N[C@H](C(=O)N[C@@H](CC(=O)O)C(=O)N[C@@H](CC(C)C)C(=O)N[C@@H](CCCNC(=N)N)C(=O)N[C@@H](CCCCN)C(=O)N[C@@H](CC(=O)O)C(=O)N[C@@H](CCCCN)C(=O)N[C@@H](C)C(=O)N[C@@H](CCCCN)C(=O)N[C@@H](COP(=O)(O)O)C(=O)N[C@@H](CS)C(=O)OC)[C@@H](C)O)C(C)C` has a Kd of 3.39 µM (YWHAZ (Homo sapiens, UniProt P63104); cell-free assay, FP; pH 7.5).
The Kd of `CC(C)C[C@H](NC(=O)[C@H](CCCNC(=N)N)NC(=O)[C@H](CCC(=O)O)NC(=O)[C@H](CCCCN)NC(=O)[C@H](CCCNC(=N)N)NC(=O)[C@H](CCCCN)NC(=O)[C@H](CCC(=O)O)NC(=O)[C@H](CC(C)C)NC(=O)[C@H](Cc1ccccc1)NC(=O)[C@H](CCCNC(=N)N)NC(=O)[C@H](C)NC(=O)[C@H](CC(C)C)NC(=O)[C@H](CO)NC(=O)[C@]1(C)CCCC=CCCC[C@](C)(NC(=O)[C@@H]2CCCN2C(=O)[C@@H](NC(=O)[C@H](CO)NC(=O)c2ccc3c(c2)C(=O)OC32c3ccc(N(C)C)cc3Oc3cc(N(C)C)ccc32)C(C)C)C(=O)N[C@@H](C)C(=O)N[C@@H](CCCNC(=N)N)C(=O)N[C@@H](CCCCN)C(=O)N1)C(=O)O` is reported as 1.5 ± 0.2 µM (Transcription factor MYC2 (MYC2, Arabidopsis thaliana, UniProt Q39204); binding, fluorescence anisotropy; pH 8.0, MYC2 residues 55-259).
The Kd of `C[C@@H](O)[C@H](NC(=O)[C@@H]1CCCN1C(=O)[C@H](CO)NC(=O)[C@H](Cc1ccc(O)cc1)NC(=O)[C@H](COP(=O)(O)O)NC(=O)[C@@H]1CCCN1C(=O)[C@H](CO)NC(=O)[C@@H](NC(=O)[C@@H]1CCCN1C(=O)[C@H](CO)NC(=O)[C@H](Cc1ccc(O)cc1)NC(=O)[C@H](CO)NC(=O)[C@@H]1CCCN1C(=O)[C@@H](N)CO)[C@@H](C)O)C(=O)N[C@@H](CO)C(=O)N1CCC[C@H]1C(=O)N[C@@H](CO)C(=O)N[C@@H](Cc1ccc(O)cc1)C(=O)O` is reported as 32.5 ± 3 µM (Regulation of nuclear pre-mRNA domain-containing protein 1B, CID domain (RPRD1B, Homo sapiens, UniProt Q9NQG5); binding, fluorescence polarization; pH 8.0, room temperature).
`CC(=O)NC1C(O)OC(CO)C(OC2OC(CO)C(OC3OC(CO)C(O)C(O)C3O)C(O)C2O)C1O` (centres unmarked) has a Kd of 0.342 µM (sly, domain 4 (Streptococcus suis, UniProt Q55996); binding).
With `N=C(N)NCCC[C@@H]1NC(=O)[C@@H](CCCCN)NC(=O)CCNC(=O)[C@@H](Cc2ccc3ccccc3c2)NC(=O)[C@H](CC(=O)O)NC(=O)[C@H](CCCCN)NC1=O` the Kd was 211 µM (HSPA5 (Homo sapiens, UniProt P11021); binding, SPR; pH 7.4).
With `CC[C@H](C)[C@H](NC(=O)[C@H](CCCNC(=N)N)NC(=O)[C@H](CCCNC(=N)N)NC(=O)[C@H](C)NC(=O)[C@H](CC(C)C)NC(=O)[C@H](CCCNC(=N)N)NC(=O)[C@H](C)NC(=O)[C@H](Cc1c[nH]c2ccccc12)NC(=O)[C@H](CCCCN)NC(=O)[C@H](CCC(=O)O)NC(C)=O)C(=O)N[C@@H](C)C(=O)NCC(N)=O` the Kd was 0.44 µM (Histone chaperone ASF1A (Homo sapiens, UniProt Q9Y294); binding, ITC; pH 7.5).
`Cc1cc(-c2ccc3ccccc3c2)nnc1NCCN1CCN(C)CC1` gave a Kd of 0.125 µM (HTR2B (Homo sapiens, UniProt P41595); Gq activation, antagonist, Schild analysis; with: serotonin).
`CCCCCCCC(=O)N[C@@H](CCCCNS(=O)(=O)c1cccc2c(N(C)C)cccc12)C(=O)N[C@H](C(=O)N[C@@H](CCN)C(=O)N[C@H]1CCNC(=O)[C@H]([C@@H](C)O)NC(=O)[C@H](CCN)NC(=O)[C@H](CCN)NC(=O)[C@H](CC(C)C)NC(=O)[C@@H](Cc2ccccc2)NC(=O)[C@H](CCN)NC1=O)[C@@H](C)O` gave a Kd of 0.6 ± 0.1 µM (lipopolysaccharide; binding, fluorescence titration; Salmonella enterica; pH 7.0).
`N=C(N)NCCC[C@H](NC(=O)[C@H](Cc1ccccc1)NC(=O)[C@@H]1CCCN1C(=O)[C@H](CO)NC(=O)[C@H](Cc1ccccc1)NC(=O)CNC(=O)[C@@H]1CCCN1C(=O)[C@@H]1CCCN1C(=O)[C@@H](N)CCCNC(=N)N)C(=O)N[C@@H](CCCCNS(=O)(=O)c1ccc(C2=c3cc4c5c(c3Oc3c2cc2c6c3CCCN6CCC2)CCC[N+]=5CCC4)c(S(=O)(=O)[O-])c1)C(=O)O` gave a Kd of 30 ± 10 µM (Oligopeptide-binding protein OppA (oppA, Lactococcus lactis subsp. lactis, UniProt Q07741); binding, fluorescence anisotropy; pH 6.5, 45 °C, with: dye-labelled peptide).

Some of these lines once more:
With `CC[C@H](C)[C@H](NC(=O)[C@H](CCCNC(=N)N)NC(=O)[C@H](CCCNC(=N)N)NC(=O)[C@H](C)NC(=O)[C@H](CC(C)C)NC(=O)[C@H](CCCNC(=N)N)NC(=O)[C@H](C)NC(=O)[C@H](Cc1c[nH]c2ccccc12)NC(=O)[C@H](CCCCN)NC(=O)[C@H](CCC(=O)O)NC(C)=O)C(=O)N[C@@H](C)C(=O)NCC(N)=O` the Kd was 0.44 µM (Histone chaperone ASF1A (Homo sapiens, UniProt Q9Y294); binding, ITC; pH 7.5).
The Kd of `CSCC[C@H](NC(C)=O)C(=O)N[C@H]1CSCc2cc3cc(c2)CSC[C@@H](C(=O)N[C@H](C(=O)N[C@@H](C)C(=O)N[C@@H](Cc2ccc(O)cc2)C(=O)N[C@@H](CCCCN)C(=O)N[C@@H](Cc2ccc(O)cc2)C(=O)NCC(=O)N[C@@H](CO)C(=O)NCC(=O)N[C@@H](CO)C(=O)NCC(=O)N[C@@H](CO)C(=O)N[C@@H](CC(=O)O)C(=O)N[C@@H](Cc2ccc(O)cc2)C(=O)N[C@@H](CCCCN)C(=O)N[C@@H](CC(=O)O)C(=O)N[C@@H](CC(=O)O)C(=O)N[C@@H](CC(=O)O)C(=O)N[C@@H](CC(=O)O)C(=O)N[C@@H](CCCCN)C(N)=O)[C@@H](C)O)NC(=O)[C@H](Cc2ccccc2)NC(=O)[C@H](CCCCN)NC(=O)[C@H](CSC3)NC(=O)[C@H](Cc2ccccc2)NC(=O)[C@H](CC(N)=O)NC(=O)[C@H](CC(C)C)NC(=O)[C@H]([C@@H](C)O)NC1=O` is reported as 1.31 µM (FGFR4 (Homo sapiens, UniProt P22455); binding, BLI).
With `N=C(N)NCCC[C@@H]1NC(=O)[C@@H](CCCCN)NC(=O)CCNC(=O)[C@@H](Cc2ccc3ccccc3c2)NC(=O)[C@H](CC(=O)O)NC(=O)[C@H](CCCCN)NC1=O` the Kd was 211 µM (HSPA5 (Homo sapiens, UniProt P11021); binding, SPR; pH 7.4).
